Measurements gathered from unrelated publications.
Every numbered part comes from another study and shows a few of its results, in no order.

Sample 1
Target: HLA class I histocompatibility antigen, A alpha chain, allele A*80:01 (Homo sapiens, UniProt P04439)
Effect on: peptide-MHC binding
Form: peptide
Concentration: concentration not given
Under binding, `KHDFIDNPL` is recorded as “inactive”.
Under binding, `QLKSRAAVL` is recorded as “inactive”.
Under binding, `QYLFSLTYV` is recorded as “inactive”.
`NHDGIQAGV` — result for binding: “inactive”.
`NSESGNSRY`: binding “inactive”.
For `RTFGQPLFF`, binding read “inactive”.
Under binding, `TVYGLGADV` is recorded as “inactive”.
`IANTTDHFF` — result for binding: “inactive”.
`LSDLKKTIY`: binding “inactive”.
For `TLKDGDFIL`, binding read “inactive”.
Under binding, `YKDANISMY` is recorded as “inactive”.
Under binding, `GMHDGTVGK` is recorded as “inactive”.
For `RVVRPWGSY`, binding read “inactive”.
Under binding, `RVHFHRFMY` is recorded as “active”.
Under binding, `IVFMWAIHH` is recorded as “inactive”.
Under binding, `RASHFRKLF` is recorded as “inactive”.
Under binding, `LPYPVLLKI` is recorded as “inactive”.
`MVFGRFSFA`: binding “inactive”.

Sample 2
Cell line: HEK-293T-ACE2-TMPRSS2
Technique: cell count
Concentration: 10 µM
`CN(C)Cc1c(O)ccc2cc(-c3nc4ccccc4n3C)c(=O)oc12` has a viability of 87%.
For `Cc1noc(C)c1CN1C[C@@H](CO)[C@H](NC(=O)c2cccnc2)C1`, the viability was 97%.
`CC(C)c1ccc(C2C3=C(COC3=O)Nc3c2c(=O)n(C)c(=O)n3C)cc1` (stereo not drawn) gave a viability of 68%.
The viability of `CNC(=O)C(C#N)(Cc1cc(Cl)cc2c1OCOC2)Cc1cc(Cl)cc2c1OCOC2` is reported as 101%.
With `CCOC(=O)c1ccc(N2N=C(C(=O)c3ccccc3)S(=O)(=O)c3ccc(F)cc32)cc1` the viability was 71%.
The viability of `Cc1ccccc1CN1C[C@@H]2C[C@@H](c3cc4ccccc4o3)N3CCC[C@@]23C1=O` is reported as 70%.
For `O=C(/C=C/S/C=C/C(=O)c1ccc(F)cc1)c1ccc(F)cc1`, the viability was 84%.
`CC1(C)CC(=O)c2c(C(F)(F)F)nn(-c3ccc(C(N)=O)c(N[C@H]4CC[C@H](O)CC4)c3)c2C1` gave a viability of 79%.
For `Cc1cccc(CN2CCCC3(CCN(c4nc(C)cnc4C)C3)C2=O)c1` (stereo not drawn), the viability was 100%.

Sample 3
Target: Sodium-dependent serotonin transporter (SLC6A4, Homo sapiens, UniProt P31645)
Effect on: binding
Technique: radioligand binding
Concentration: 10 µM
For `CC(C)CC(=O)N1CCc2nc(-c3ccc(Br)cc3)nc(N(C)Cc3ccccc3)c2C1`, the inhibition was -16.7%.
`CC(=O)N1CCC(c2ccc(C(=O)NC(=N)N)cc2C(F)(F)F)CC1` gave an inhibition of 21.4%.
For `O=C(NC[C@@H]1[C@H]2CN(C(=O)OCc3cc(C(F)(F)F)cc(C(F)(F)F)c3)C[C@@H]12)c1ccc2[nH]nnc2c1`, the inhibition was -9.34%.
`CCOC(=O)c1cc2cc(-c3cc(C(=O)NCc4ccc(C(=O)O)cc4)nn3C)ccc2[nH]1` gave an inhibition of -0.14%.
With `CCOCCn1cc(C(=O)Nc2ccc(-n3nc(-c4cccnc4)cc3C(F)(F)F)cn2)ccc1=O` the inhibition was 8.63%.
With `CC(C)(O)c1cncc(-c2nc3ccc(F)cc3n2C2CC2)c1` the inhibition was -15.3%.
`CNC(=O)c1ccc(Nc2ncc(C(F)(F)F)c(NCc3nccnc3N(C)S(C)(=O)=O)n2)cc1` gave an inhibition of 2.45%.
`Cc1nc(N2CC[C@@H](O)C2)ncc1-c1cc(C(F)(F)F)cc2[nH]ncc12` has an inhibition of -6.93%.

Single results of other studies
For `CC(C)n1cnc(-c2ccc(F)cc2)c1-c1ncc(C(=O)Nc2ccc(N3CCN(C)CC3)cc2)[nH]1`, “patients with Gamma-glutamyltransferase increased” read 0% (human, idiopathic pulmonary fibrosis; 30 mg once daily, trial, treatment-emergent).

Excerpt of the above (sample 1):
For `TLKDGDFIL`, binding read “inactive”.
Under binding, `YKDANISMY` is recorded as “inactive”.
Under binding, `GMHDGTVGK` is recorded as “inactive”.
For `RVVRPWGSY`, binding read “inactive”.
